Experimental data collected from several papers.
Protocols differ between the studies behind these lines. ± gives the spread as reported.
B1: C1S 438-688 S632A (Homo sapiens, UniProt P09871); chain IIGGSDADIKNFPWQVFFDNPWAGGALINEYWVLTAAHVVEGNREPTMYVGSTSVQTSRLAKSKMLTPEHVFIHPGWKLLEVPEGRTNFDNDIALVRLKDPVKMGPTVSPICLPGTSSDYNLMDGDLGLISGWGRTEKRDRAVRLKAARLPVAPLRKCKEVKVEKPTADAEAYVFTPNMICAGGEKGMDSCKGDAGGAFAVQDPNDKTKFYAAGLVSWGPQCGTYGLYTRVKNYVDWIMKTMQENSTPRED
B2: UBASH3A 276-340 (Homo sapiens, UniProt P57075); chain VHYQTLRALFQYKPQNVDELTLSPGDYIFVDPTQQDEASEGWVIGISQRTGCRGFLPENYTDRAS
B3: Pigr 19-135 (Mus musculus, UniProt O70570); chain KSPIFGPQEVSSIEGDSVSITCYYPDTSVNRHTRKYWCRQGASGMCTTLISSNGYLSKEYSGRANLINFPENNTFVINIEQLTQDDTGSYKCGLGTSNRGLSFDVSLEVSQVPELPS
B4: sst2 catalytic domain 245-435 F403A (Schizosaccharomyces pombe, UniProt Q9P371); sequence looked up; chain AGTFKIHAYTEGGKPLRTIYLPKLLKKVFLDVVKPNTKKNLETCGILCGKLRQNAFFITHLVIPLQEATSDTCGTTDEASLFEFQDKHNLLTLGWIHTHPTQTCFMSSVDLHTHCSYQLMLPEAIAIVMAPSKNTSGIFRLLDPEGLQTIVKCRKPGLAHPHEGKVYTMVAQPGHVREINSKLQVVDLRVK
B5: PUX7 171-468 (Arabidopsis thaliana, UniProt Q94JZ8); chain LASLYRPPFHLMFQGSFEQAKTTSSSQDKWLLVNLQSTTEFSSHMLNRDTWANDAVSQTIKANFIFWQVYDDTTEGRKVCTYYKLESIPVVLVIDPTTGQRMRMWTGMVDPENLLEDLVPFMDGGPREHFASLSKKRPRGSFSLTPHSKPKEDVAKDEEEEELQRALAASLEDNNMKESSDDQSTIIPEEVAVEAVTSAVLPTFPPLPEEPKGGDRSLQCRVGIRLPNGQRLQRNFLKTDTIQLLWSFCYSQLEESERKKPLKLTQAIPGESKTLEYESNLTLEQSGVANSMISATWE
B6: PUX2 157-273 (Arabidopsis thaliana, UniProt Q9ZU93); chain DNNDNDKSEMEKLVVVYLSGKPSESSIDVLLRLFKNIVKEPENAKFRKVRMSNAKIKEAIGDVAGGVELLELVGFELKEENDEIWAVMDVPSEEQSILINKVVGYLEKRKTESSGSS
B7: KLRK1 73-216 (Homo sapiens, UniProt P26718); sequence looked up; chain IWSAVFLNSLFNQEVQIPLTESYCGPCPKNWICYKNNCYQFFDESKNWYESQASCMSQNASLLKVYSKEDQDLLKLVKSYHWMGLVHIPTNGSWQWEDGSILSPNLLTIIEMQKGDCALYASSFKGYIENCSTPNTYICMQRTV
B8: FLT3LG 27-185 (Homo sapiens, UniProt P49771); sequence looked up; chain TQDCSFQHSPISSDFAVKIRELSDYLLQDYPVTVASNLQDEELCGGLWRLVLAQRWMERLKTVAGSKMQGLLERVNTEIHFVTKCAFQPPPSCLRFVQTNISRLLQETSEQLVALKPWITRQNFSRCLELQCQPDSSTLPPPWSPRPLEATAPTAPQPP
B9: Cacna1c 1647-1777 (Mus musculus, UniProt Q01815); sequence looked up; chain NALSLQAGLRTLHDIGPEIRRAISGDLTAEEELDKAMKEAVSAASEDDIFRRAGGLFGNHVTYYQSDSRGNFPQTFATQRPLHINKTGNNQADTESPSHEKLVDSTFTPSSYSSTGSNANINNANNTALGR
Sequence of UniProt P54609 (whole entry, looked up): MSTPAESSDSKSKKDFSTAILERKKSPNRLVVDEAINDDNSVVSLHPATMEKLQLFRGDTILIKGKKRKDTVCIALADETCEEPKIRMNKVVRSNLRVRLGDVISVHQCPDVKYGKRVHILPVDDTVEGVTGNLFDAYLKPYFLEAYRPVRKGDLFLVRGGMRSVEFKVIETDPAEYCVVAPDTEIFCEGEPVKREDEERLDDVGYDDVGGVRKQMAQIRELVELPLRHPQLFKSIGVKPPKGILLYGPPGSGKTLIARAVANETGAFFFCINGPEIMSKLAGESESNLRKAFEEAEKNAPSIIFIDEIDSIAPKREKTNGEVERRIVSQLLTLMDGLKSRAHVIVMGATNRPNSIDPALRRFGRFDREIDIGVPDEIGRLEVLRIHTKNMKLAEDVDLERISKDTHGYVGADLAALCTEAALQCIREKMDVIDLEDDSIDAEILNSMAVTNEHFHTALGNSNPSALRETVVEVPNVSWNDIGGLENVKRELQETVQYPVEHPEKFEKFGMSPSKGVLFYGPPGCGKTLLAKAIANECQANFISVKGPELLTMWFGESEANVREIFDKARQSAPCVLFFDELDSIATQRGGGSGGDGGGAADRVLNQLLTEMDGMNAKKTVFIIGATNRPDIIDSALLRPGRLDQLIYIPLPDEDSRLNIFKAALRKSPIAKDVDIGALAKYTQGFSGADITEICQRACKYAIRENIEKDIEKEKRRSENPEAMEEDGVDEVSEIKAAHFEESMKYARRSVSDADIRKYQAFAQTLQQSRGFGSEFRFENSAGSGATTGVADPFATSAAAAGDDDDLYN
Sequence of UniProt P05155 (whole entry, unmodified, looked up): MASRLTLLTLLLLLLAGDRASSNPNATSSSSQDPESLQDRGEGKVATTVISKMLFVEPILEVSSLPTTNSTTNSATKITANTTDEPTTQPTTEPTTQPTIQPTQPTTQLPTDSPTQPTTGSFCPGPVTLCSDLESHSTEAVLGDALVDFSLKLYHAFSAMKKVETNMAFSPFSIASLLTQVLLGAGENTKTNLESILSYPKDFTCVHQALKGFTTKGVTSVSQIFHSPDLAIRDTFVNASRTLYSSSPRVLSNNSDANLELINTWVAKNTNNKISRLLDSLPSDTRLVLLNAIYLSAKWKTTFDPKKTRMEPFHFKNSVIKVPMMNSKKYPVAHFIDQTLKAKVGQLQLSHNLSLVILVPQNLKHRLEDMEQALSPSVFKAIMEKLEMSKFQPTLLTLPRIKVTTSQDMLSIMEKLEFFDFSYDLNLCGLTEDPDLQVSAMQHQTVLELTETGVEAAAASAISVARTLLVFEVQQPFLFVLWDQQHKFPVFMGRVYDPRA
Sequence of UniProt P27986 (whole entry, unmodified, looked up): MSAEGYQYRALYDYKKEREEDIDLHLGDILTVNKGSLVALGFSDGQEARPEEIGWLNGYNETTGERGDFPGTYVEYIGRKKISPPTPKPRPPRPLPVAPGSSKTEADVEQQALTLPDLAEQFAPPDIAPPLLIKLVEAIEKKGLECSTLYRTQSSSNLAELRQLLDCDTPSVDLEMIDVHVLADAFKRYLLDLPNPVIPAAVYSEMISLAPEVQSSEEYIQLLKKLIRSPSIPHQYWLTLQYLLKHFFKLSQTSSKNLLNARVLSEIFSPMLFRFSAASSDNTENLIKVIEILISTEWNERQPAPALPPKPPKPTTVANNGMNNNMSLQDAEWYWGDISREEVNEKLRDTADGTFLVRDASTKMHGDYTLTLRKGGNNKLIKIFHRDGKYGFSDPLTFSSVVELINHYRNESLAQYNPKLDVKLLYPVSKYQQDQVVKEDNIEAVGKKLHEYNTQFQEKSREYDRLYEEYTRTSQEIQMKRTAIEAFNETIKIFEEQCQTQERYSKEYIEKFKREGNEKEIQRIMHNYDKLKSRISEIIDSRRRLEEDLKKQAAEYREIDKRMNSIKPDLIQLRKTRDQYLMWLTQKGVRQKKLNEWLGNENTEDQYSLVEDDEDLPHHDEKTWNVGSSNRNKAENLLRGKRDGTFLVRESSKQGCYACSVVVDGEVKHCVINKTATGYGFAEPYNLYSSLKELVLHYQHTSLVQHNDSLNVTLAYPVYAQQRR
Sequence of UniProt Q00342 (whole entry, looked up): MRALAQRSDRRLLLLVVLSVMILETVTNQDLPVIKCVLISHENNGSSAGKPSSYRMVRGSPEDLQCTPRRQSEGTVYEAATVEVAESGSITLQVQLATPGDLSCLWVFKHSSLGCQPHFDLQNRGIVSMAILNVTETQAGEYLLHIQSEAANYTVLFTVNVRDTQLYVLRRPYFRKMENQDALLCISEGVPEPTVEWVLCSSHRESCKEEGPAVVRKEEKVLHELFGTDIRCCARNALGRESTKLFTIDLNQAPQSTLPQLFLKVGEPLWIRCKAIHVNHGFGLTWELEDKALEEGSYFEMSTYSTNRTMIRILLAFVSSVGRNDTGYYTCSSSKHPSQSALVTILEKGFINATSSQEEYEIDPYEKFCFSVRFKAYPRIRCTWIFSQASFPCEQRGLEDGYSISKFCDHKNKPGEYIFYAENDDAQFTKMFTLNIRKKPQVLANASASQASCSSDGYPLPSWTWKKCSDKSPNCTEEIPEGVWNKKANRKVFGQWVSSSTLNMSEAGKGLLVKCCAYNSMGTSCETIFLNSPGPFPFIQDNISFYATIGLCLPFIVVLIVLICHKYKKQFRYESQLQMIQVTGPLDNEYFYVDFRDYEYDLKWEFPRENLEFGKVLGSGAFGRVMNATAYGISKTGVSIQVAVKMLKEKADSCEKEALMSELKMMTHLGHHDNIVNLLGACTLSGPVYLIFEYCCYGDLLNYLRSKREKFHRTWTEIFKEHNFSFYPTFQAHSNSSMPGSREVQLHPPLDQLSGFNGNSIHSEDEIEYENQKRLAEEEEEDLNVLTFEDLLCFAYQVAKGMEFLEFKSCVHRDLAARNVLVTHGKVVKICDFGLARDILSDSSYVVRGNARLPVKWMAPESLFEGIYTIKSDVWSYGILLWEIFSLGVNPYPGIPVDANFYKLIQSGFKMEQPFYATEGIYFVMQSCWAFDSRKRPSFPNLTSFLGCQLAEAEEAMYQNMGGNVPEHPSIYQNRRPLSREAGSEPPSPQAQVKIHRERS
Sequence of UniProt Q29983 (whole entry, looked up): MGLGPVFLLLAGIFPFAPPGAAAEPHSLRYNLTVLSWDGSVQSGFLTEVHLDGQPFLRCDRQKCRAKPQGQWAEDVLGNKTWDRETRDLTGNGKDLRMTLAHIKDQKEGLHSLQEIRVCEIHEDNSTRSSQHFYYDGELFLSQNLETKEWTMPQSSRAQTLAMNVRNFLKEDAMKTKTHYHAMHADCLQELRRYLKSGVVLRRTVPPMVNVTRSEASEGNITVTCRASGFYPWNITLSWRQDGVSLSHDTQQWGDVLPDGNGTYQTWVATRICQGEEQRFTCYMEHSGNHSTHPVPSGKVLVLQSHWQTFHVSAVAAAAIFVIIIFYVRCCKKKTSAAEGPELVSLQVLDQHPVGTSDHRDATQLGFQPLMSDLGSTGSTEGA

| Molecule | tested on | assay | test system | conditions | scale | measurement | value |
| --- | --- | --- | --- | --- | --- | --- | --- |
| B1 (C1S 438-688 S632A) | SERPING1 111-500 K390A/Q392A (Homo sapiens, UniProt P05155) | SPR |  | added: Ca2+ |  | Kd | 9.6 µM |
| B2 (UBASH3A 276-340) | PIK3R1 80-724 (Homo sapiens, UniProt P27986) | ITC |  |  |  | Kd | 23.8 ± 3.2 µM |
| SPTF (BRIP1 peptide 990-993; N-acetyl, pS, C-amide) | BRCA1 BRCT domain | ITC | peptide |  |  | Kd | 2.31 ± 0.06 µM |
| colistin | Escherichia coli |  | clinical isolate RKI 867/14 |  |  | MIC | ≤ 0.5 µg/mL |
| B3 (Pigr 19-135) | IgA Fc/J chain CH2-CH3 domains Y135A (Mus musculus) | SPR |  |  |  | Kd | 1.1 µM |
| B4 | UBB mature (UniProt P0CG47) | ITC |  |  |  | Kd | 6.2 ± 0.5 µM |
| B5 (PUX7 171-468) | CDC48A 1-463 (Arabidopsis thaliana, UniProt P54609) | ITC |  | 10 °C |  | Kd | 5.3 ± 0.4 µM |
| Peginesatide | UT7/EPO | microarray, item: EPAS1 mRNA (probe set 242868_at) |  | 20 nM, 90 min | baseline: vehicle | mRNA level | 4.2 fold |
| B6 (PUX2 157-273) | CDC48A 465-809 (Arabidopsis thaliana, UniProt P54609) | ITC |  | 25 °C |  | Kd | 13.5 ± 2.2 µM |
| B7 (KLRK1 73-216) | MICA high-affinity allele 24-307 (Homo sapiens, UniProt Q29983) | SPR | Fc fusion |  |  | Kd | 0.0061 ± 0.0006 µM |
| CDH2 EC3 (Homo sapiens) | FGB residues 15-66, dimer (Homo sapiens) | ELISA |  |  |  | Kd | 0.0713 µM |
| ACRGDGWCG (cyclic RGD peptide; disulfide-cyclized, aminocaproic acid, FITC) | ITGAV/ITGB3 ectodomain, soluble, clasped | fluorescence polarisation | peptide |  |  | Kd | 0.0046 µM |
| B8 (FLT3LG 27-185) | Flt3 28-544 (Mus musculus, UniProt Q00342) | SPR |  |  |  | Kd | 13.8 µM |
| VMRLQSETSV | human SCRIB PDZ3-4 tandem (MBP fusion) | automated holdup | peptide, purified PDZ protein | concentration not given, unit not given | baseline: biotin control resin, higher = stronger binding | binding intensity | 0.661 |
| PSPHGTRRHLPSPP (SOS1 proline-rich peptide, 1264-1277) | GRB2 1-58 (Homo sapiens, UniProt P62993) | NMR titration | peptide |  |  | Kd | 208 µM |
| B9 (Cacna1c 1647-1777) | Jph2 1-440 S165W (Mus musculus, UniProt Q9ET78) | ITC |  |  |  | Kd | 6.1 µM |
| PRPRPRPRPRPRPRPRPRPRPRPRPRPRPRPRPRPRPRPR ((PR)20 20 repeats; TAMRA label N-terminal) | FUS 1-214 (Homo sapiens, UniProt P35637) | fluorescence polarisation | peptide |  |  | Kd | 0.144 ± 0.0255 µM |
| GGWVEKETYY | human SCRIB PDZ3-4 tandem (MBP fusion) | automated holdup | peptide, crude extract | concentration not given, uncorrected, unit not given | baseline: biotin control resin, higher = stronger binding | binding intensity | 0.0402 |

Excerpt of the above:
| Molecule | tested on | assay | test system | conditions | scale | measurement | value |
| --- | --- | --- | --- | --- | --- | --- | --- |
| colistin | Escherichia coli |  | clinical isolate RKI 867/14 |  |  | MIC | ≤ 0.5 µg/mL |
| PSPHGTRRHLPSPP (SOS1 proline-rich peptide, 1264-1277) | GRB2 1-58 (Homo sapiens, UniProt P62993) | NMR titration | peptide |  |  | Kd | 208 µM |
| B4 | UBB mature (UniProt P0CG47) | ITC |  |  |  | Kd | 6.2 ± 0.5 µM |
